Results of several laboratories.
Each numbered part is a random draw from the data of one study; scales do not carry over between parts. Substitutions count along the parent as printed.
Chain of UniProt O15294 (whole entry, looked up): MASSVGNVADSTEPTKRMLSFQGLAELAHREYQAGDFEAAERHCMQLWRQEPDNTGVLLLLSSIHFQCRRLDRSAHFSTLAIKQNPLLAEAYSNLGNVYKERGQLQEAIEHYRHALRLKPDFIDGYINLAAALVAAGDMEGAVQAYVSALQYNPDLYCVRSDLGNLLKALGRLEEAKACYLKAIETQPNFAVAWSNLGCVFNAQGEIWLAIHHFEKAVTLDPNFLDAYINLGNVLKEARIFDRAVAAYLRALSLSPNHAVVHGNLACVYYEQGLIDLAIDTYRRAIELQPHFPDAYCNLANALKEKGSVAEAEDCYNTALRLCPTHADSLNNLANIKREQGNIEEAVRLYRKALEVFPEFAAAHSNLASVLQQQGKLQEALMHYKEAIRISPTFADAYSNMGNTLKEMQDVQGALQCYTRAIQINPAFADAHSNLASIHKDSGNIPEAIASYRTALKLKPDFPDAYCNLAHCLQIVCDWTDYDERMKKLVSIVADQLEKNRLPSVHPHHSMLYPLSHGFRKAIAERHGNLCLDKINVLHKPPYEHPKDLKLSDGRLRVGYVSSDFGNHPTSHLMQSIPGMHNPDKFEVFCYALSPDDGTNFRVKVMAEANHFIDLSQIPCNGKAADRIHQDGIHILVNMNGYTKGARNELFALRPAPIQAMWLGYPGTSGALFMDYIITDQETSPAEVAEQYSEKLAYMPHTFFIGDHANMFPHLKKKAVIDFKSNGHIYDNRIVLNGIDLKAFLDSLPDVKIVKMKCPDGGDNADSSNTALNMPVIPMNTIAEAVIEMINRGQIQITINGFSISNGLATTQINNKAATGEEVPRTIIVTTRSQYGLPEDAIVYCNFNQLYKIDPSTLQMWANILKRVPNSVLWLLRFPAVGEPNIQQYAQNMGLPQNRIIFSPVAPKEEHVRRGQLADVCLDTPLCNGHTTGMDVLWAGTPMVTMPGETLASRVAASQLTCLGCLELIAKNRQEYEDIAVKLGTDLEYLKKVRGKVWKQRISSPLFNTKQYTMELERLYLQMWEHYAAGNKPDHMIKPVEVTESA

Block 1 — target: CREB3L1, bZIP domain (human); technique: DHFR protein complementation; matrix: yeast; baseline: wild-type JUN-FOS pair; direction: higher = stronger binding
Notes: single substitutions, most at no-binding floor
Starting sequence: JUN, bZIP domain (human); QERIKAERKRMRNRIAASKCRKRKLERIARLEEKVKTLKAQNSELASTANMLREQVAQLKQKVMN; partner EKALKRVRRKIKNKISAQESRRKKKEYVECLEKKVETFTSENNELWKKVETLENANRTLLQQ
`Q55W` gave a binding fitness of -1.31 natural log.
`L31S` has a binding fitness of -1.36 natural log.
With `A29P` the binding fitness was -1.48 natural log.
With `S43R` the binding fitness was -1.25 natural log.
`L52R` gave a binding fitness of -1.5 natural log.
For `T48Q`, the binding fitness was -1.4 natural log.
`K36G` has a binding fitness of -1.36 natural log.
`S43W` gave a binding fitness of -1.48 natural log.

Block 2 — technique: RNA Bind-n-Seq; molecule type: RNA; matrix: in vitro; tested at: 200 nM; notes: whole 134-nt RNA, ends assumed; with: 150 mM KCl; baseline: input library; direction: higher = stronger binding
Target: Fragile X messenger ribonucleoprotein 1, C-terminal low-complexity region (Fmr1, Mus musculus, UniProt P35922)
All sequences stand within: GGGAGUUCUACAGUCCGACGAUC … UGGAAUUCUCGGGUGUCAAGG
With `CCUCAAGUCCUGUGCUACACAUCGUAUGUACCGAAUCGGUGGGGUGGGUGGGGAAAGUAUUAUGUUACGCCGUUCGGAUCUGCACUUCCA` the log2 enrichment was 1.33.
`UCAAGUCCUGUGCUACACAUCGUAUGUACCGAAUCGGUUUUUUUGGAAAGGUGGAAAGUAUUAUGUUACGCCGUUCGGAUCUGCACUUCC` has a log2 enrichment of -0.532.
With `UCCUCAAGUCCUGUGCUACACAUCGUAUGUACCGAAUCGGGUGGUGGGGUGGAAAGUAUUAUGUUACGCCGUUCGGAUCUGCACUUCCAG` the log2 enrichment was 0.556.
For `UUUUUUGUAGUAGGGAGAUCCUUGAUCAUCAGGAUGGUAAUGUAGAAGAUGAUGGGCUUACAGGACUCCUAAGGCUUGCAACAAGUGUUG`, the log2 enrichment was 0.556.
`CUGUGCUACACAUCGUAUGUACCGAAUCGGUUUUUUUGGGGUUUUUUUGGGGUUUUUUUGGAAAGUAUUAUGUUACGCCGUUCGGAUCUG` gave a log2 enrichment of -0.784.
The log2 enrichment of `CCUCAAGUCCUGUGCUACACAUCGUAUGUACCGAAUCGGAAGGGAAGGAAGGGAAAGUAUUAUGUUACGCCGUUCGGAUCUGCACUUCCA` is reported as -0.394.
The log2 enrichment of `AAGUCCUGUGCUACACAUCGUAUGUACCGAAUCGGAAAAAAAGGUUUGGAAAAAGGAAAGUAUUAUGUUACGCCGUUCGGAUCUGCACUU` is reported as -1.28.
For `UGGGAGGUGGAUUUUGUUUAUUUUUUUAGCUCAUUUCCAGGGGUGGGAAUUUUUUUUUAAUAUGUGUCAUGAAUAAAGUUGUUAUUGAAA`, the log2 enrichment was 0.154.

Block 3 — technique: aptamer microarray, sandwich; molecule type: DNA with 2'F-ANA; matrix: in vitro; tested at: 200 nM; with: Cy3 exosite-II aptamer, 400 nM; direction: higher = stronger binding; sequence: GGTTGGTGTGGTTGG
Target: Prothrombin, mature alpha-thrombin (F2, Homo sapiens, UniProt P00734)
Notes: whole 15-mer aptamer, many near background
Under “mean fluorescence intensity”, `2'F-ANA at 1 7 8 11 15` is recorded as 236 a.u.
For `2'F-ANA at 1 2 4 6 7 8 10 11 13`, “mean fluorescence intensity” read 55 a.u.
`2'F-ANA at 1 2 4 5 6 8 11 12` — result for “mean fluorescence intensity”: 89.3 a.u.
For `2'F-ANA at 1 2 8 15`, “mean fluorescence intensity” read 252 a.u.
`2'F-ANA at 12 15` — result for “mean fluorescence intensity”: 851 a.u.
`2'F-ANA at 2 3 5 6 8 10 11`: “mean fluorescence intensity” 48.2 a.u.
For `2'F-ANA at 1 2 5 6 7 8 9 12`, “mean fluorescence intensity” read 117 a.u.
`2'F-ANA at 2 4 6 7 8 9 10 12 13 14` — result for “mean fluorescence intensity”: 101 a.u.

Further values, each from its own experiment
`ETNQYLPTYQIMYQF` — result for “log2 fold enrichment”: 6.05 (UDP-N-acetylglucosamine--peptide N-acetylglucosaminyltransferase 110 kDa subunit (OGT, Homo sapiens, UniProt O15294); phage display binding, phage display panning NGS; peptide; baseline: OGT-panned over input library).

For quick reference, copied from above (block 3):
`2'F-ANA at 12 15` — result for “mean fluorescence intensity”: 851 a.u.
`2'F-ANA at 2 3 5 6 8 10 11`: “mean fluorescence intensity” 48.2 a.u.
